Experimental data collected from several papers.
A part holds a random share of what one study measured. Several values in a cell are separate wells, animals, samples, runs or records.
UniProt P10721, sequence (whole entry, looked up): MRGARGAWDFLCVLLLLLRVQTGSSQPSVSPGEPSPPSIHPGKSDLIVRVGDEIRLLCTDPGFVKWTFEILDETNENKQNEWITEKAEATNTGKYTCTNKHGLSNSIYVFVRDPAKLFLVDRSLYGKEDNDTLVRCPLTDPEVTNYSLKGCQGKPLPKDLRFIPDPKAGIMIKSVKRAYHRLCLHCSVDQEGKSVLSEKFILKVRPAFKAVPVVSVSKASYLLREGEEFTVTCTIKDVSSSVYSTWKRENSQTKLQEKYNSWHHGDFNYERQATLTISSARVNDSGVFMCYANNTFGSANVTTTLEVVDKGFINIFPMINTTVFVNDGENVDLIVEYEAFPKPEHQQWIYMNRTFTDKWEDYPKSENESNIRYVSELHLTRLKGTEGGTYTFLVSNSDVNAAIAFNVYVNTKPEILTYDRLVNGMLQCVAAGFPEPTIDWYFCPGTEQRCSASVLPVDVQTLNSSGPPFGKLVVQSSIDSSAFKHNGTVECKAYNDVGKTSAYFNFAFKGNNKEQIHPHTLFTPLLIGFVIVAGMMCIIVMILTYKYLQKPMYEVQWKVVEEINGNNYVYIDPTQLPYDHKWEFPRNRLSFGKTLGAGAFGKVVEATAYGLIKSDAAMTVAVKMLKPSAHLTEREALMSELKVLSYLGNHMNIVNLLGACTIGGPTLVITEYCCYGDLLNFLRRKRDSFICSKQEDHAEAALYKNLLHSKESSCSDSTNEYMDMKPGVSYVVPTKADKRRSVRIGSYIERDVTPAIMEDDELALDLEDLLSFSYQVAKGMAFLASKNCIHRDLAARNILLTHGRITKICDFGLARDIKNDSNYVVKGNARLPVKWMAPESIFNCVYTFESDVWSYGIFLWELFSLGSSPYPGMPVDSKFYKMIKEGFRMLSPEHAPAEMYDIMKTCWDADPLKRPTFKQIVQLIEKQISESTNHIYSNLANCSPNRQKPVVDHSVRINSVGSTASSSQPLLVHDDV
UniProt Q9UK32, sequence (whole entry, looked up): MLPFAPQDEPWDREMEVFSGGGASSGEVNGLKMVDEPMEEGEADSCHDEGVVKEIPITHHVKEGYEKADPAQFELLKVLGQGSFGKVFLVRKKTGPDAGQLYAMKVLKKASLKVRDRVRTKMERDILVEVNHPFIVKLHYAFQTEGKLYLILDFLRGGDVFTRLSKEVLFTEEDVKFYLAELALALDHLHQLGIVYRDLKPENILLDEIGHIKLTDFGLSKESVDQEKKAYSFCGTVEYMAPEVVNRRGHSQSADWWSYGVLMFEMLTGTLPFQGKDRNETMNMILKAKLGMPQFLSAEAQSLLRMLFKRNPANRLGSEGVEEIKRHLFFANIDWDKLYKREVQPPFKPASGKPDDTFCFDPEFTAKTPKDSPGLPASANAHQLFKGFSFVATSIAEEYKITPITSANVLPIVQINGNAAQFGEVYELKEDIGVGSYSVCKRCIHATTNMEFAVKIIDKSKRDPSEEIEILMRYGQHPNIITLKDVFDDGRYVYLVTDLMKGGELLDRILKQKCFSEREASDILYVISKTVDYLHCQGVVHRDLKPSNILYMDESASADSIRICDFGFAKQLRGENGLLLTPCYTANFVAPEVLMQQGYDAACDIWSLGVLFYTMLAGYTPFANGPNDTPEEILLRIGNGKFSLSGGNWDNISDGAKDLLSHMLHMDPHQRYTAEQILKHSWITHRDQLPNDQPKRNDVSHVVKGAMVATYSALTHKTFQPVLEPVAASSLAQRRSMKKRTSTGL
UniProt Q9UPE1, sequence (whole entry, looked up): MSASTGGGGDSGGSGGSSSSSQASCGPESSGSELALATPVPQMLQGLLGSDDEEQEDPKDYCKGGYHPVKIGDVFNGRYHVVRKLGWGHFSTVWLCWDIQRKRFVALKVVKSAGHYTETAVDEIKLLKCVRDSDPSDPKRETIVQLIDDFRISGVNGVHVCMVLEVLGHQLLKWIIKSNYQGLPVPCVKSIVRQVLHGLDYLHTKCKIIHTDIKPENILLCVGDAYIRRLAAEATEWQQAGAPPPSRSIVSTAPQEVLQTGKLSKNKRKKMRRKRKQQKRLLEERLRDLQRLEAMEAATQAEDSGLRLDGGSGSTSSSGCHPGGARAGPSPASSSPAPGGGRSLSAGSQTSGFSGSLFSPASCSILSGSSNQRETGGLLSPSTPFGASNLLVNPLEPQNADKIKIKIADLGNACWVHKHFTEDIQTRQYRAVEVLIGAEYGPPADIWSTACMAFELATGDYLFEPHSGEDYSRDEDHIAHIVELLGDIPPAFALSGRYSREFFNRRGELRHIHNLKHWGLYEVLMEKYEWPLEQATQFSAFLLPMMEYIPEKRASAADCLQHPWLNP
UniProt P35590, sequence (whole entry, looked up): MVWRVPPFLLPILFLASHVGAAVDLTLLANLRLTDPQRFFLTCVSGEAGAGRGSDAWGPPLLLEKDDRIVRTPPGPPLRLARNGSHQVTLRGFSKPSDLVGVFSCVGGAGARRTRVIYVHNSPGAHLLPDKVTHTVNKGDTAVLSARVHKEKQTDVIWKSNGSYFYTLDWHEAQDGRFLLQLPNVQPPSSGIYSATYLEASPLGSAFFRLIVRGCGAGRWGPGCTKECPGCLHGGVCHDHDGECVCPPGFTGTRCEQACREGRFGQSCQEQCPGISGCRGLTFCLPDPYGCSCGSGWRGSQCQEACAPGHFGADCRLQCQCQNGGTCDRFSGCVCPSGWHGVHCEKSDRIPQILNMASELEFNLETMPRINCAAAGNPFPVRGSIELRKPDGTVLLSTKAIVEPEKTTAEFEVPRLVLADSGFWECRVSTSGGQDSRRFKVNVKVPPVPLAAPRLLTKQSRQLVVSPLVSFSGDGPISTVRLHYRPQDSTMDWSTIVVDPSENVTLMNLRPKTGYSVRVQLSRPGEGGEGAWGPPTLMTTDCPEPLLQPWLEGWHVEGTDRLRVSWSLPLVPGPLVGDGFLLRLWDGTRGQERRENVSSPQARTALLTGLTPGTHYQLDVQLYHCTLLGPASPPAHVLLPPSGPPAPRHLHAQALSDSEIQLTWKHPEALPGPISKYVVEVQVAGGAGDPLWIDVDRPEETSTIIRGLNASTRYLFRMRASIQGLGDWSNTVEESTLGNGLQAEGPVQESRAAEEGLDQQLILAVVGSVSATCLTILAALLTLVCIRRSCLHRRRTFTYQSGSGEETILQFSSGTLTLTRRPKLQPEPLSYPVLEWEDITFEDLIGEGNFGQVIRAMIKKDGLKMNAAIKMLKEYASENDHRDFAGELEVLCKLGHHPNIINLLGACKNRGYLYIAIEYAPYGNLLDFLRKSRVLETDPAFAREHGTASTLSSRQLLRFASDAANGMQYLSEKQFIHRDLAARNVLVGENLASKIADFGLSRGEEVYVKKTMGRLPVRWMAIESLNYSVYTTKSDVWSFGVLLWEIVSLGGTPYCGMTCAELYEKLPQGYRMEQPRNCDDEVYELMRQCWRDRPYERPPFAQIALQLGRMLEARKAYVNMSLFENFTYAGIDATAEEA
UniProt Q05397, sequence (whole entry, looked up): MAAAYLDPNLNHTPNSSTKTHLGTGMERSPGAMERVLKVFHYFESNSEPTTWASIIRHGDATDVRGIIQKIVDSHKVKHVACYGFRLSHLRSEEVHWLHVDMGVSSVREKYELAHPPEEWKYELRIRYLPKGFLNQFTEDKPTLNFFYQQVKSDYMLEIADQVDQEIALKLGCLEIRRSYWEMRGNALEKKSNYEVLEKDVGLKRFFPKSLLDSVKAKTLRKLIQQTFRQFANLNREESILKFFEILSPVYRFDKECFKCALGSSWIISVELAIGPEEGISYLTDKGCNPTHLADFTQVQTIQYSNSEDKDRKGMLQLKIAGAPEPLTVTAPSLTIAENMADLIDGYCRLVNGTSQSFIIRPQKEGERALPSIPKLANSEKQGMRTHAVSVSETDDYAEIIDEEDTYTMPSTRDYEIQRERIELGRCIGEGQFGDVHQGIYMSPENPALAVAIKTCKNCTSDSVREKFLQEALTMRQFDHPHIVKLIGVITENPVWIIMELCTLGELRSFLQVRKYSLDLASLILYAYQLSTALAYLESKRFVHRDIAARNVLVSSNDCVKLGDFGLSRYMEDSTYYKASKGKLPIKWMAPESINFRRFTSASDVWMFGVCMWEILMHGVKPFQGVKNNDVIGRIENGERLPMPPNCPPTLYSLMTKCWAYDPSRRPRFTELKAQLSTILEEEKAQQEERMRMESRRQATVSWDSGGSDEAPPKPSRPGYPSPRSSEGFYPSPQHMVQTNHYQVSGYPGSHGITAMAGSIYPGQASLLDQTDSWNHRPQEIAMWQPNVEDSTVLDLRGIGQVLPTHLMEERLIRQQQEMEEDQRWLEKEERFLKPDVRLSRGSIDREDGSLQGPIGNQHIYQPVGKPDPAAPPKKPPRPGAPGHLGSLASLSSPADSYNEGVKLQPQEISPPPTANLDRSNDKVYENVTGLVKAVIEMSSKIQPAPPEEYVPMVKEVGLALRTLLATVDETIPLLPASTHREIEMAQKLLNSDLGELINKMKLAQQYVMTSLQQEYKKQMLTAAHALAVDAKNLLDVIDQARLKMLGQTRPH
UniProt Q8WTQ7, sequence (whole entry, looked up): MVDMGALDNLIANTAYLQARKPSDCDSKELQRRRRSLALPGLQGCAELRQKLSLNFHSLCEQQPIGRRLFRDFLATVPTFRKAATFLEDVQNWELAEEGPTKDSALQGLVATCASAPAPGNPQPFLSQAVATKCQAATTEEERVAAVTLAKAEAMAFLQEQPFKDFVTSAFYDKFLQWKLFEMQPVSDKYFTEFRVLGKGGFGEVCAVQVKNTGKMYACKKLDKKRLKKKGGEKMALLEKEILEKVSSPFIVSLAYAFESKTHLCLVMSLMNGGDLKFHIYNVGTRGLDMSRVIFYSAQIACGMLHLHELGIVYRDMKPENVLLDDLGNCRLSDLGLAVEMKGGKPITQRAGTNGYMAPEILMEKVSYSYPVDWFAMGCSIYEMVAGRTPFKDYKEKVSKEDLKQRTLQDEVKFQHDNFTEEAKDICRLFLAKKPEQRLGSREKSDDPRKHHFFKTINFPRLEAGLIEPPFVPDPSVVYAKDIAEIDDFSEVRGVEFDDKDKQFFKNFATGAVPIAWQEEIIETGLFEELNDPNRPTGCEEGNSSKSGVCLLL

Study 1 — effect on: binding; method: competition with immobilised ligand; tested at: 1 µM
Structure (SMILES): COc1cc(-c2nc3ccc(C(=O)NCCCN(C)C)cc3n2C2CCC2)cc(OC)c1OC
target	remaining binding [%]
Ribosomal protein S6 kinase alpha-6, C-terminal kinase domain (RPS6KA6, Homo sapiens, UniProt Q9UK32)	85
Focal adhesion kinase 1 (PTK2, Homo sapiens, UniProt Q05397)	100
Tyrosine-protein kinase receptor Tie-1 (TIE1, Homo sapiens, UniProt P35590)	96
Mast/stem cell growth factor receptor Kit, autoinhibited (KIT, Homo sapiens, UniProt P10721)	81
SRSF protein kinase 3 (SRPK3, Homo sapiens, UniProt Q9UPE1)	100
Mitogen-activated protein kinase kinase kinase 19 (MAP3K19, Homo sapiens, UniProt Q56UN5)	99
Mitogen-activated protein kinase kinase kinase 1 (MAP3K1, Homo sapiens, UniProt Q13233)	79
Rhodopsin kinase GRK7 (GRK7, Homo sapiens, UniProt Q8WTQ7)	100

Study 2 — cell line: U-87 MG; tested at: concentration not given; reference: DMSO
SMILES: CCN1/C(=C/C=C2\CCCC(/C=C/C3=[N+](CC)c4ccccc4C3(C)C)=C2NCCCCCCCCN2CCC(Nc3nc4ccccc4n3Cc3ccc(F)cc3)CC2)C(C)(C)c2ccccc21
refers to	log2 fold change
LDAF1 mRNA	2.1
EHD2 mRNA	-0.956
MYOZ2 mRNA	-1.79
OSGEPL1 mRNA	-1.22
TESK2 mRNA	1.17
RASGEF1B mRNA	2.97
NME4 mRNA	-0.809
CSF3 mRNA	2.47

Study 3 — species: Crbn I391V mouse, MC-38 tumour
SMILES: Cn1cc(-c2cccc(CN3CCC4(CC3)COc3c4ccc4c3CN([C@H]3CCC(=O)NC3=O)C4=O)c2)cn1
route	dose	time	notes	with	tumour volume
	30 mg/kg	day 34		anti-LAG3 antibody 10 mg/kg weekly	189 mm3 and 1690 mm3 and 1250 mm3
oral	30 mg/kg once daily	day 3			106 mm3 and 122 mm3 and 127 mm3 and 155 mm3 and 142 mm3
oral, daily	30 mg/kg	day 1	anti-PD1 combination study		88.8 mm3 and 100 mm3 and 109 mm3 and 85.6 mm3 and 78 mm3
	30 mg/kg	day 13		anti-LAG3 antibody 10 mg/kg weekly	1000 mm3 and 122 mm3 and 859 mm3 and 400 mm3
	30 mg/kg	day 1		anti-LAG3 antibody 10 mg/kg weekly	94.6 mm3 and 96.3 mm3 and 86.2 mm3 and 89.2 mm3 and 74.1 mm3

Further values, each from its own experiment
Compound	organism	effect on	dose	notes	quantity	value
C=CCN1C(=O)C(O)(C(=O)O)Oc2cc(F)ccc21 (stereo not shown)	Abutilon theophrasti	fresh weight	150 g ai/ha	pre-emergence treatment	inhibition	87.2% and 84.3% and 94.3%

For quick reference, copied from above (further values, each from its own experiment):
Compound	organism	effect on	dose	notes	quantity	value
C=CCN1C(=O)C(O)(C(=O)O)Oc2cc(F)ccc21 (stereo not shown)	Abutilon theophrasti	fresh weight	150 g ai/ha	pre-emergence treatment	inhibition	87.2% and 84.3% and 94.3%
